# Measurements gathered from unrelated publications.
# Parts stem from different laboratories: compare values within a part only.

# Sample 1 — method: aptamer microarray, sandwich; molecule type: DNA with 2'F-ANA; sample: in vitro; concentration: 200 nM; with: Cy3 exosite-II aptamer, 400 nM; reading: higher = stronger binding; strand: GGTTGGTGTGGTTGG
# Target: Prothrombin, mature alpha-thrombin (F2, Homo sapiens, UniProt P00734)
# Notes: whole 15-mer aptamer, many near background
Modification,mean fluorescence intensity [a.u.]
2'F-ANA at 1 2 3 4 5 7 9 11 12 13 14,50.8
2'F-ANA at 1 3 4 7 12 13,318
2'F-ANA at 3 4 6 9 10 11 15,210
2'F-ANA at 1 2 4 6 8 9 11 12 13 14,52.3
2'F-ANA at 1 3 6 7 10 11 15,76.5
2'F-ANA at 1 2 4 7 9 10 11 13 15,55.8

# Sample 2 — method: protein binding microarray; molecule type: double-stranded DNA, one strand shown; sample: in vitro; concentration: not given; relative to: not given; reading: higher = stronger binding
# Target: Histone acetyltransferase KAT6A, both winged helices, GST fusion (KAT6A, Homo sapiens, UniProt Q92794, residues 1-181)
# Notes: 8-mer, flanks averaged, mean of 2 arrays, mostly near background
# Residues (chain): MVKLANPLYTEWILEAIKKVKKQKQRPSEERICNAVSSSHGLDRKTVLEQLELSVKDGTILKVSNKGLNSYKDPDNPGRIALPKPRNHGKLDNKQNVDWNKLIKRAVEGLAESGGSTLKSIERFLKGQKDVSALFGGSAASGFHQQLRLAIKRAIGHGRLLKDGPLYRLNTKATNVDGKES
Strand,E-score
TGCCGACA,0.249
ACTCGGGG,0.0344
ACGGAAAG,0.217
CGAGTCCA,-0.079
CGATACTA,0.0404
ACACCTGA,-0.0357
CATTGTTC,-0.0102
CTTAGGAA,-0.207

# Sample 3 — method: RNA Bind-n-Seq; molecule type: RNA; sample: in vitro; concentration: 365 nM; relative to: no-protein control; reading: higher = stronger binding
# Target: RNA binding protein fox-1 homolog 2, RRM domain, GST-SBP tag (RBFOX2, Homo sapiens, UniProt O43251-10, residues 100-194)
# Notes: natural RNA segment, single round, ends assumed
# Residues (chain): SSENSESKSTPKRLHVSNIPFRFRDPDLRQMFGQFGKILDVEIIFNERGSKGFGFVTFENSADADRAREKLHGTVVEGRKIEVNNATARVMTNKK
Strand,RBNS enrichment (R)
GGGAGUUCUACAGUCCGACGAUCAGGGUGGGGGUUGGGGGAAGCUUGACCUUGUGUCUUCGUCAAUAAACUCACAUUUACACAAAAUGAAGUUUGUGGUAUGUAUUUUUUUCCCCAGAACUGACAUUCUAGGAUGGAAUUCUCGGGUGCCAA,0.546
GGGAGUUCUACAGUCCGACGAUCUACCUAUACAUACGUGCACACACACAUACAUAUUCAUACACAAUUCAUACACAUGCAAUCAUACAUGCACACUGACUCUGAACUGGGUGAACUCUGUGGAGGGAGGCCCAUGGAAUUCUCGGGUGCCAA,0.817
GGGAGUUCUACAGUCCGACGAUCUCUCUUCGGGCCAGCCCGGUGCCACGGUCACAUGGGGGAAGACUUCAGCCACAGCUGUGAGCAGCUCUCUGCCAGCUAUGUGGCCAGGGACCACAAAACUACCAUGUGAGUGGAAUUCUCGGGUGCCAA,0.192
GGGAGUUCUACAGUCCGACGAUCAUCCCAAUAUCUGCCCUAAGUGAUUUUUGAGAACAGGGUUUCAUGUAUCCCAGCCAGCCUGGGUCUCACUGUAUAGCUGGAGAGACUUUCGAAAUUGUAUCCUUCUGACUUGGAAUUCUCGGGUGCCAA,0.502
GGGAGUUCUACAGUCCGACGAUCUUUUCCCACCUGUGAAUAUGUAAAACAAAACCAUUAUCUUUGAGGGAGUUUUUAAUACCAAUGACAGAACAGAGAUUUGUGUGCUCAUCUUAAGAGCCAGAGCCAUAUAAUGGAAUUCUCGGGUGCCAA,0.501
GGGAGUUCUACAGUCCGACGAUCGCCCCUGUCUUCCUUCUCAUGACCAUUUCCCCCUUUCUGUCUGGCUUGCAUUAUUGAUUUCCAGGACCAAGUCCUGGCUUCCUCCUGCCUUCCUGAGAUGAUGUUCUGCUUGGAAUUCUCGGGUGCCAA,1.06
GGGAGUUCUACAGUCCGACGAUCAUAUAGGCCCCCAAAAUGAUCGUAGUACAUGCCAGUCAUUUCUCAGUGAAAUAAAUACAAUACCAGAGUACAUUAUGGGUUUUAUUGCUUUCUUUUAUGGUAGACCUGUUUGGAAUUCUCGGGUGCCAA,0.357
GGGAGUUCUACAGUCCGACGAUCGAGUUUUAUUUUGCAUUAGGGUGUGUUUUAUGUUAAGCAAAACAUACUUUAGAAACAAAUGAAAAAGGCAAUUGAAAAUCCCAGCUAUUUCACCUAGAUGGAAUAGCCACUGGAAUUCUCGGGUGCCAA,0.369

# Further values, each from its own experiment
Substance,target,test,test system,setting,how to read,quantity,result
"PhoQ, residues 284 288 289 292 302 303 ALVSVA","PhoP, residues 12 14 15 18 19 NMSFL (Escherichia coli, UniProt P23836)","Sort-seq, item: YFP reporter",E. coli,"PhoQ-PhoP variant library, with: 10 µM Mg2+","relative to: high Mg2+ state, higher = stronger signaling",fold induction,13.7

# Repeated from above (sample 1):
Modification,mean fluorescence intensity [a.u.]
2'F-ANA at 3 4 6 9 10 11 15,210
2'F-ANA at 1 2 4 6 8 9 11 12 13 14,52.3
2'F-ANA at 1 3 6 7 10 11 15,76.5
